Measurements pooled from the literature.
± gives the spread as reported.
UniProt P78527, sequence (whole entry, looked up): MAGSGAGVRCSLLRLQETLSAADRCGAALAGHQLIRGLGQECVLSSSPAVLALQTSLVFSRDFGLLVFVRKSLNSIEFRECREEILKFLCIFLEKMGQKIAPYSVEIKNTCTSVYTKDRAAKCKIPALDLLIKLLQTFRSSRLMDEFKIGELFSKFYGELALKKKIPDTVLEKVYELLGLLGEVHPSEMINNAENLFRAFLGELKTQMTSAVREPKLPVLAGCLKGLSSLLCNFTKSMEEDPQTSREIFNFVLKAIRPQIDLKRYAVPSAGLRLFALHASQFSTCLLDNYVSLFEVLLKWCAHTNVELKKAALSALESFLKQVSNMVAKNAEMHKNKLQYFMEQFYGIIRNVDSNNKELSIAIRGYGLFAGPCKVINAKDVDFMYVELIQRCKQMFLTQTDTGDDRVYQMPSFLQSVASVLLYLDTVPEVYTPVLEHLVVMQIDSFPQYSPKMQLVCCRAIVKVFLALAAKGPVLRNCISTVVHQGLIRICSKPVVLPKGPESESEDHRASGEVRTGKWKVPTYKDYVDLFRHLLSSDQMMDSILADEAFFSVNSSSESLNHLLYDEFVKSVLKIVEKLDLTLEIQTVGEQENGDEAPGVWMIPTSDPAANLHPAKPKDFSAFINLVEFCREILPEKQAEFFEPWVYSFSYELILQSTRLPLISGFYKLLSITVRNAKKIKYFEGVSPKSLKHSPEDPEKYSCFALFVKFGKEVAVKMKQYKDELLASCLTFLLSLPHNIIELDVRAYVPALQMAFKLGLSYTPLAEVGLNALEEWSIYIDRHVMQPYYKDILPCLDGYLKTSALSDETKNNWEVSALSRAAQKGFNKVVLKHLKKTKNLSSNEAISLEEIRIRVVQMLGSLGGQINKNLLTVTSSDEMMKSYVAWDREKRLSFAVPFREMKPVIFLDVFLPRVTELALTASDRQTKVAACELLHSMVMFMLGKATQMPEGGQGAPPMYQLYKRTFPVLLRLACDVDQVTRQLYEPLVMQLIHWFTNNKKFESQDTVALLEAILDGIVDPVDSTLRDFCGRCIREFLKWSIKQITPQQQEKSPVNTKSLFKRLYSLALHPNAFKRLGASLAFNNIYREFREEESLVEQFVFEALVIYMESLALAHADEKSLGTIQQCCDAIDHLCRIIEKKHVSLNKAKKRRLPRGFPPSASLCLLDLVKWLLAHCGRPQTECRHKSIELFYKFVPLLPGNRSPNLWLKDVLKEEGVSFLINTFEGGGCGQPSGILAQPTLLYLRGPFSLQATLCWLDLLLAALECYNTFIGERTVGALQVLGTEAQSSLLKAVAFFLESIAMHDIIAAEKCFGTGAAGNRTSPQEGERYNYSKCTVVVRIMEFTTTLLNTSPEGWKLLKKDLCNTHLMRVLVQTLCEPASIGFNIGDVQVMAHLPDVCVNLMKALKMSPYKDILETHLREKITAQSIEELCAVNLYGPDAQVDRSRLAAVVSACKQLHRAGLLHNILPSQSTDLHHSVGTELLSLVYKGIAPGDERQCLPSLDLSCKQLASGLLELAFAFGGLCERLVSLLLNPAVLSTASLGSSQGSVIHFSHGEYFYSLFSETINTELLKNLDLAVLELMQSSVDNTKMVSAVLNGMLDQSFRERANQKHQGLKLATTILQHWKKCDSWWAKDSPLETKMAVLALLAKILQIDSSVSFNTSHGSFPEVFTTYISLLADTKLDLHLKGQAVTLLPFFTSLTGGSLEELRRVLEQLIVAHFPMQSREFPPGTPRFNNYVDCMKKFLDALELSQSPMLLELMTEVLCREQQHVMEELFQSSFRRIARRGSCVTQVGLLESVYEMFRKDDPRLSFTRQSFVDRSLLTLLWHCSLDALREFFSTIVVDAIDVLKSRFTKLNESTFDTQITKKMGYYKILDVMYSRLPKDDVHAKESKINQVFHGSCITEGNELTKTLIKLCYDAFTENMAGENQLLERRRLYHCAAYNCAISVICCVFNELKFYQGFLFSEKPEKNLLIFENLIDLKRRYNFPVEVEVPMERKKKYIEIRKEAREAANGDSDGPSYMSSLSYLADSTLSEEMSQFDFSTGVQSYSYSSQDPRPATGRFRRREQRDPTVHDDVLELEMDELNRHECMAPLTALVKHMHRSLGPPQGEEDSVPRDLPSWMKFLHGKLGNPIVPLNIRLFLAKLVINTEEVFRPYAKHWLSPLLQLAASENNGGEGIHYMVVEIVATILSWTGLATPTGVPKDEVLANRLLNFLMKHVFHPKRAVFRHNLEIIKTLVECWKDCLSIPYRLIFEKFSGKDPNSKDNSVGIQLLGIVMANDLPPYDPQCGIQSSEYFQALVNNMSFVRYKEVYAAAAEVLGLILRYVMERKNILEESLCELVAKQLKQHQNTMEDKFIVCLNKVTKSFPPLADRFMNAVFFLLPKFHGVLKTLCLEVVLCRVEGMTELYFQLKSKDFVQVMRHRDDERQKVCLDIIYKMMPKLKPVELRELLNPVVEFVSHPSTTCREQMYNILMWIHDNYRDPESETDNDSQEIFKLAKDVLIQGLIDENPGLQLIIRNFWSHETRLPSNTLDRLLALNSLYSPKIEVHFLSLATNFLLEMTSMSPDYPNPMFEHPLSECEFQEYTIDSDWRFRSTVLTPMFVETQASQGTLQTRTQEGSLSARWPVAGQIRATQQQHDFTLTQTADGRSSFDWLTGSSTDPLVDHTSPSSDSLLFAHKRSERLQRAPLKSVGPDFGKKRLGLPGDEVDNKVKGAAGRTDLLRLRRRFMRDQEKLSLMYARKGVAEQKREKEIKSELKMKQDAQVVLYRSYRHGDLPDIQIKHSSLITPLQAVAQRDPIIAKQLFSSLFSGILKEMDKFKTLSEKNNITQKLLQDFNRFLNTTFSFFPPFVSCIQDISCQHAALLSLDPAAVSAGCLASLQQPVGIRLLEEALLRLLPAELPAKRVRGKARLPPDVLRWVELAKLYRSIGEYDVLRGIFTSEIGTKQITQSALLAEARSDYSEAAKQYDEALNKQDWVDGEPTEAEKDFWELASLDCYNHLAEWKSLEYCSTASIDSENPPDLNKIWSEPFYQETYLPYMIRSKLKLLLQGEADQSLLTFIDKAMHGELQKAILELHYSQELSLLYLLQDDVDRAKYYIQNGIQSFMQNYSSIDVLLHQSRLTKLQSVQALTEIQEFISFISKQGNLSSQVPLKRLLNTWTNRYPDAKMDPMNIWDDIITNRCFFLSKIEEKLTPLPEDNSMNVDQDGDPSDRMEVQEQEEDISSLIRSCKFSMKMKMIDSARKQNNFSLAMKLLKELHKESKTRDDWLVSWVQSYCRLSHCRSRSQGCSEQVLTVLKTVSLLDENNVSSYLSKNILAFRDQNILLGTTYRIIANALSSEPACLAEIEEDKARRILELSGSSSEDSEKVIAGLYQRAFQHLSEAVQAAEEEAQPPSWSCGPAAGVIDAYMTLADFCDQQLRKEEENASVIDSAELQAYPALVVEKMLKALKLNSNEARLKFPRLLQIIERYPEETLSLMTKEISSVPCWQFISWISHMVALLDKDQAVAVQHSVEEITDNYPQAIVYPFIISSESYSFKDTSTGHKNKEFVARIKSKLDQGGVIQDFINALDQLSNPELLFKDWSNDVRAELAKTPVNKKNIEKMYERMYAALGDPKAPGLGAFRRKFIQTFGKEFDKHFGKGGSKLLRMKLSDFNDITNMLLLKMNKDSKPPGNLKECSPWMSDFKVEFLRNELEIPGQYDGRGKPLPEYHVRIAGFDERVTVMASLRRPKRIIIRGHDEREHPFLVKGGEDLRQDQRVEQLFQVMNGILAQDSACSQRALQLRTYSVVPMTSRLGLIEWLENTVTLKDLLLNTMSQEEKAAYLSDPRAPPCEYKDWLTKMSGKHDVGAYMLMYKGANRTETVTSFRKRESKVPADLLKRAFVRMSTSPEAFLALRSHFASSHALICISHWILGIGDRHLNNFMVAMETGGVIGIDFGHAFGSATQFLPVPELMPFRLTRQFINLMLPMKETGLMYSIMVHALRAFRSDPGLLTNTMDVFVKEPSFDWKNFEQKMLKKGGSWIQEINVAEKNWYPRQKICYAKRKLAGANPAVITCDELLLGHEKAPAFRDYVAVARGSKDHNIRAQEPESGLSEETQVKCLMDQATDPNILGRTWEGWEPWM
UniProt P45983, sequence (whole entry, looked up): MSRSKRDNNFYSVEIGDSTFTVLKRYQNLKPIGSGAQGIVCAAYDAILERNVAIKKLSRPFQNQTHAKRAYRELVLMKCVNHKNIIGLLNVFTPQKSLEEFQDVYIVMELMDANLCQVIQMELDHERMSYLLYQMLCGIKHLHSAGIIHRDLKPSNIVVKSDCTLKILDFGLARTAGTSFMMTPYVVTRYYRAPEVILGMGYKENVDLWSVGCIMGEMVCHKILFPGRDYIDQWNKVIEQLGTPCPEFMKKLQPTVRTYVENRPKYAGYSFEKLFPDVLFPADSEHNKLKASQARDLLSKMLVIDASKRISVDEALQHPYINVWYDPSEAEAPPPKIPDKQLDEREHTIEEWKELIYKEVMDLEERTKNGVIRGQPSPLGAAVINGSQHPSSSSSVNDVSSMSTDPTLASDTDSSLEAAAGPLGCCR

| SMILES | tested on | test | test system | setting | how to read | quantity | value |
| --- | --- | --- | --- | --- | --- | --- | --- |
| O=C1NC(=O)c2c1c1cc(F)c[n+]3c1c1c2c2cc(O)ccc2[n]1[Ru-4]312([N]=C=S)[S+]3CC[S+]1CC[S+]2CC3 (stereo not drawn) | Mitogen-activated protein kinase 8 (MAPK8, Homo sapiens, UniProt P45983) | enzyme activity |  | 100 nM, human enzyme, added: 10 µM ATP | relative to: untreated | remaining activity | 103% |
| C[C@H]1[C@@H](OCc2cn(-c3cc4ccc(O)cc4oc3=O)nn2)O[C@@H]2O[C@@]3(C)CC[C@H]4[C@H](C)CC[C@@H]1[C@@]24OO3 | J774 | cell growth or viability, ATP luminescence |  | 72 h |  | CC50 | 9.56 µM |
| Nc1nc2nc[nH]c2c(=S)[nH]1 | HEK293T |  |  | 48 h |  | CC50 | > 100 µM |
| COc1ccccc1-c1n[nH]c2nc(NC3CCN(C(=O)Cc4ccc(F)cc4F)CC3)ncc12 |  | bead binding, competition bead pull-down, item: LINJ.30.1440 | Leishmania donovani extract | 10 µM | relative to: vehicle | relative abundance | 1.14 |
| O=c1c2ccccc2[se]n1-c1cccc(F)c1 | HPAEpiC | cell growth or viability, MTT |  | 24 h |  | CC50 | > 100 µM |
| CC[C@H](C)[C@H](NC(=O)[C@H](CCCCN)NC(=O)CNC(=O)[C@H](CC(C)C)NC(=O)[C@H](Cc1ccccc1)NC(=O)[C@H](CCCCN)NC(=O)[C@H](CO)NC(=O)[C@H](Cc1ccccc1)NC(=O)[C@H](Cc1c[nH]c2ccccc12)NC(=O)[C@H](CCC(N)=O)NC(=O)[C@@H](NC(=O)[C@H](Cc1ccccc1)NC(=O)CCCCCNC(=O)CN1CCN(CC(=O)O)CCN(CC(=O)O)CCN(CC(=O)O)CC1)C(C)C)C(=O)N[C@@H](CCC(=O)O)C(=O)N1CCC[C@H]1C(=O)N[C@@H](CC(=O)O)C(=O)N[C@H](C(=O)N[C@@H](CO)C(=O)N[C@@H](CCC(N)=O)C(=O)N[C@H](C(=O)N[C@@H](CCC(N)=O)C(=O)N[C@@H](CC(=O)O)C(=O)N1CCC[C@H]1C(=O)N[C@@H](CC(N)=O)C(=O)N[C@@H](CC(=O)O)C(=O)N[C@@H](CCC(N)=O)C(=O)N[C@@H](Cc1ccc(O)cc1)C(=O)N[C@@H](CCC(=O)O)C(=O)N1CCC[C@H]1C(=O)N[C@@H](Cc1ccccc1)C(=O)O)C(C)C)C(C)C [copper-64 labelled] |  |  | C57BL/6 male mouse, tumour-naive, large intestine | 4 h |  | tissue uptake | 13.8 ± 1.3 %ID/g |
| O=C1NC2(CC2)COc2ncc(F)cc2[C@H]2COCCN2c2ccn3ncc1c3n2 |  |  | Sprague-Dawley rat, female, blood | oral, 20 mg/kg/day, end of treatment, 4-week repeated-dose toxicity | relative to: red blood cells | reticulocytes | 2.78 ± 1.83% |
| CS(C)(=O)=Nc1ccc(-c2ccc(-c3nc4cc(O[C@@H]5CO[C@H]6[C@@H]5OC[C@H]6O)[nH]c4cc3F)cc2)cc1 | DNA-dependent protein kinase catalytic subunit (PRKDC, Homo sapiens, UniProt P78527) | enzyme activity, inhibitor |  | 10 µM |  | inhibition | 7% |
| CC(C)CC(=O)OC1C=CC=CC(=O)OC2C(C)CC3C2(O)C(O)C2(CO)OC2C2C4OC5(c6ccccc6)OC(C(C)C23O5)C4(O)C(C)(O)CC2CCC1C2C (stereo not drawn) | HeLa-ACE2 | cell growth or viability, ATP luminescence |  | 72 h |  | CC50 | 12.7 µM |
| Cc1cc(Nc2ncc(Cl)c(Nc3ccccc3S(=O)(=O)C(C)C)n2)c(OC(C)C)cc1C1CCNCC1 | HEK293T |  |  | 48 h |  | CC50 | 21.1 µM |
| O=C(CCN(CCC(=O)N[C@@H](Cc1c[nH]c2ccccc12)C(=O)O)C(=O)CCN(CCC(=O)N(CCC(=O)N[C@@H](Cc1c[nH]c2ccccc12)C(=O)O)CCC(=O)N[C@@H](Cc1c[nH]c2ccccc12)C(=O)O)C(=O)[C@H]1C[C@@H](C(=O)N(CCC(=O)N(CCC(=O)N[C@@H](Cc2c[nH]c3ccccc23)C(=O)O)CCC(=O)N[C@@H](Cc2c[nH]c3ccccc23)C(=O)O)CCC(=O)N(CCC(=O)N[C@@H](Cc2c[nH]c3ccccc23)C(=O)O)CCC(=O)N[C@@H](Cc2c[nH]c3ccccc23)C(=O)O)C[C@@H](C(=O)N(CCC(=O)N(CCC(=O)N[C@@H](Cc2c[nH]c3ccccc23)C(=O)O)CCC(=O)N[C@@H](Cc2c[nH]c3ccccc23)C(=O)O)CCC(=O)N(CCC(=O)N[C@@H](Cc2c[nH]c3ccccc23)C(=O)O)CCC(=O)N[C@@H](Cc2c[nH]c3ccccc23)C(=O)O)C1)N[C@@H](Cc1c[nH]c2ccccc12)C(=O)O | HEL or HeLa cells | cell viability |  |  |  | CC50 | > 100 µM |
| O=C(N[C@@H](Cc1ccccc1)C(=O)N[C@@H](C[C@@H]1CCNC1=O)C(O)S(=O)(=O)O)OCc1ccccc1 (stereo partly drawn) | RD |  |  | 5 (unit not given) |  | CC50 | 93.2 ± 5.7 µM |
| O=C(CCN(CCC(=O)N[C@@H](Cc1c[nH]c2ccccc12)C(=O)O)C(=O)CCN(CCC(=O)N(CCC(=O)N[C@@H](Cc1c[nH]c2ccccc12)C(=O)O)CCC(=O)N[C@@H](Cc1c[nH]c2ccccc12)C(=O)O)C(=O)CCC(CCC(=O)N(CCC(=O)N(CCC(=O)N[C@@H](Cc1c[nH]c2ccccc12)C(=O)O)CCC(=O)N[C@@H](Cc1c[nH]c2ccccc12)C(=O)O)CCC(=O)N(CCC(=O)N[C@@H](Cc1c[nH]c2ccccc12)C(=O)O)CCC(=O)N[C@@H](Cc1c[nH]c2ccccc12)C(=O)O)(CCC(=O)N(CCC(=O)N(CCC(=O)N[C@@H](Cc1c[nH]c2ccccc12)C(=O)O)CCC(=O)N[C@@H](Cc1c[nH]c2ccccc12)C(=O)O)CCC(=O)N(CCC(=O)N[C@@H](Cc1c[nH]c2ccccc12)C(=O)O)CCC(=O)N[C@@H](Cc1c[nH]c2ccccc12)C(=O)O)[N+](=O)[O-])N[C@@H](Cc1c[nH]c2ccccc12)C(=O)O | HEL or HeLa cells | cell viability |  |  |  | CC50 | > 100 µM |
| Oc1cc(O)c2c(c1)OC(c1ccc(O)c(O)c1)C(O)C2c1c(O)cc(O)c2c1OC(c1ccc(O)c(O)c1)C(O)C2 (stereo not drawn) | HEK293T |  |  | 48 h |  | CC50 | > 100 µM |
| Nc1ccc(-n2[se]c3ccccc3c2=O)cc1 | HPAEpiC | cell growth or viability, MTT |  | 24 h |  | CC50 | 49.6 µM |
| Cc1nc2cccc(OCC(C)(C)C(=O)NC(C)C)c2c(N)c1C(=O)[O-].[Na+] | Salmonella typhimurium |  | TA100 | 0.80 mg per plate, without S9, plate incorporation |  | revertant colonies per plate | 145 ± 13 |
| O=c1c2ccccc2[se]n1-c1ccc(F)cc1 | HPAEpiC | cell growth or viability, MTT |  | 24 h |  | CC50 | > 100 µM |
| C[C@H]1[C@@H](OCc2nnn(-c3cc4ccc(O)cc4oc3=O)c2CO[C@H]2O[C@@H]3O[C@@]4(C)CC[C@H]5[C@H](C)CC[C@@H]([C@H]2C)[C@@]35OO4)O[C@@H]2O[C@@]3(C)CC[C@H]4[C@H](C)CC[C@@H]1[C@@]24OO3 | J774 | cell growth or viability, ATP luminescence |  | 72 h |  | CC50 | 5.21 µM |

Excerpt of the above:
| SMILES | tested on | test | test system | setting | how to read | quantity | value |
| --- | --- | --- | --- | --- | --- | --- | --- |
| O=C(CCN(CCC(=O)N[C@@H](Cc1c[nH]c2ccccc12)C(=O)O)C(=O)CCN(CCC(=O)N(CCC(=O)N[C@@H](Cc1c[nH]c2ccccc12)C(=O)O)CCC(=O)N[C@@H](Cc1c[nH]c2ccccc12)C(=O)O)C(=O)[C@H]1C[C@@H](C(=O)N(CCC(=O)N(CCC(=O)N[C@@H](Cc2c[nH]c3ccccc23)C(=O)O)CCC(=O)N[C@@H](Cc2c[nH]c3ccccc23)C(=O)O)CCC(=O)N(CCC(=O)N[C@@H](Cc2c[nH]c3ccccc23)C(=O)O)CCC(=O)N[C@@H](Cc2c[nH]c3ccccc23)C(=O)O)C[C@@H](C(=O)N(CCC(=O)N(CCC(=O)N[C@@H](Cc2c[nH]c3ccccc23)C(=O)O)CCC(=O)N[C@@H](Cc2c[nH]c3ccccc23)C(=O)O)CCC(=O)N(CCC(=O)N[C@@H](Cc2c[nH]c3ccccc23)C(=O)O)CCC(=O)N[C@@H](Cc2c[nH]c3ccccc23)C(=O)O)C1)N[C@@H](Cc1c[nH]c2ccccc12)C(=O)O | HEL or HeLa cells | cell viability |  |  |  | CC50 | > 100 µM |
